Published values pooled from the literature.
Each numbered part is a random draw from the data of one study; scales do not carry over between parts. Positions count from the first letter of the parent shown.

Sample 1
Target: Sal-like protein 4, full length isoform A (SALL4, Homo sapiens, UniProt Q9UJQ4, residues 1-1053)
Sequence of UniProt Q9UJQ4 (whole entry, looked up): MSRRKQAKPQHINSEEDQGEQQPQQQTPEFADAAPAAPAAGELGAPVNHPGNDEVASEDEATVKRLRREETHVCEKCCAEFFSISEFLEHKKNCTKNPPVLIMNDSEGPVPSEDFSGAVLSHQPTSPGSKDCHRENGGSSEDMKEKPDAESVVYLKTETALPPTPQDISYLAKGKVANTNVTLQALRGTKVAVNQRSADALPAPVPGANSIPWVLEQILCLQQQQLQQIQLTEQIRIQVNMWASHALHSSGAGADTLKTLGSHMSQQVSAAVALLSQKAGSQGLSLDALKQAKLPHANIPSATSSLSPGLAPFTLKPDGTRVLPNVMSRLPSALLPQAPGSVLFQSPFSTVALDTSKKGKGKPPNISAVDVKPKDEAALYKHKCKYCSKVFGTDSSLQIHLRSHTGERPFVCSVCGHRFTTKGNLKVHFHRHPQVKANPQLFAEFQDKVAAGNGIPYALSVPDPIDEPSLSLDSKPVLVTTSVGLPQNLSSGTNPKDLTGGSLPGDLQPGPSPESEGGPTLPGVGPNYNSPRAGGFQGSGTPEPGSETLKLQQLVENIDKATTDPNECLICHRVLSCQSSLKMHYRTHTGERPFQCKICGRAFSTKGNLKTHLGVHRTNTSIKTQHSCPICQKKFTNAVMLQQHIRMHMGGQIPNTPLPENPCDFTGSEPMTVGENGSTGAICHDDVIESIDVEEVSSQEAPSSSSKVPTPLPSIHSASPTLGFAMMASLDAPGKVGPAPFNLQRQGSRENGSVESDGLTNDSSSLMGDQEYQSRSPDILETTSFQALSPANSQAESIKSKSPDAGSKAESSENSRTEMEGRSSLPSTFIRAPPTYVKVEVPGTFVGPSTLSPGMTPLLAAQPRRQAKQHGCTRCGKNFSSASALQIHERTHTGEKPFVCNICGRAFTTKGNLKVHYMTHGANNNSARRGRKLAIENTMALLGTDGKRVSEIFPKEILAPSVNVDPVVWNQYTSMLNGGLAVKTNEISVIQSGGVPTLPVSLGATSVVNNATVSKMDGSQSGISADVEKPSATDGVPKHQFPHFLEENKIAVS
Technique: universal PBM
Molecule type: double-stranded DNA, one strand shown
Sample: in vitro
Tested at: 600 nM
Notes: 8-mer, flanks averaged, mean of replicates
Reading: higher = stronger binding
Oligonucleotide	E-score
CGGCGCCC	-0.341
AAATTGAG	0.17
ATGATCGA	0.168
ACCGCCAT	-0.142
CCAGCACG	-0.246
GACCTAGA	-0.108
GTAAGTTA	0.192
ACGAATTG	0.0777
GCCCCTGA	-0.256
AAATTGTA	0.317
TATCTTAA	0.296
GAATTATA	0.357
GTCGAGTA	0.0529
TCACTGCA	0.123
CTGTGGAC	-0.151
ATGAATGC	0.241
AGTTGCGC	-0.112
AAGGACTA	0.107
CAACCCGG	-0.375
AGTAGAAG	-0.0571
CAATGCCA	-0.0536
AGTCGGAG	-0.256
ACACGGTA	-0.107
ACTACTTA	0.174
TTATTCAA	0.391

Sample 2
Target: Transcription factor SOX-2, HMG box (Sox2, Mus musculus, UniProt P48432, residues 41-119)
Sequence of UniProt P48432 (41-119, looked up): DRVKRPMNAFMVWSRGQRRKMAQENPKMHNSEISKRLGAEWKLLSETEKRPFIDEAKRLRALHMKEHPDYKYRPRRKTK
Technique: Spec-seq
Molecule type: double-stranded DNA, one strand shown
Sample: in vitro
Tested at: not given
Notes: whole probe, mean of replicates
Baseline: not given
Reading: lower = stronger binding
Constant ends, left off below: GAGTCGTCTCGTCAGCAC … CCGTAGAGCACTCAGGTC
Oligonucleotide	relative binding energy
AATGGTT	-2.04 ln ratio
CATTGTC	-2.15 ln ratio
AGGAGTT	0.982 ln ratio
TTAAGTT	0.211 ln ratio
ACGCGTT	1.02 ln ratio
CCGAGTT	1.25 ln ratio
ACTTGTT	-0.931 ln ratio
CATGCAC	0.174 ln ratio
CATTTAC	-0.648 ln ratio
AGGCGTT	1.32 ln ratio
CCCCGTT	1.06 ln ratio
CATAGTG	-0.87 ln ratio
AGGGGTT	1.21 ln ratio
CATTCTT	-1.8 ln ratio
CATCCAT	0.46 ln ratio
CATAGGA	-0.558 ln ratio
CATGCGT	0.48 ln ratio
CATGAAG	-0.118 ln ratio
CATCATG	0.327 ln ratio
CATGGAG	-0.0039 ln ratio
CATACTG	-0.193 ln ratio
TATGGTT	-0.645 ln ratio
GGAAGTT	1.27 ln ratio
CATTTTT	-0.279 ln ratio

Sample 3
Molecule: PhoQ, residues 284 288 289 292 302 303 GASLAW
Technique: Sort-seq
Refers to: YFP reporter
Sample: E. coli
Notes: PhoQ-PhoP variant library
Together with: 10 µM Mg2+
Baseline: high Mg2+ state
Reading: higher = stronger signaling
target	fold induction
PhoP, residues 12 14 15 18 19 VGHWL (Escherichia coli, UniProt P23836)	2.48
PhoP, residues 12 14 15 18 19 LHHYF (Escherichia coli, UniProt P23836)	13.1
PhoP, residues 12 14 15 18 19 TPWTL (Escherichia coli, UniProt P23836)	0.584
PhoP, residues 12 14 15 18 19 NFFVT (Escherichia coli, UniProt P23836)	18

Sample 4
Target: CCNE2, cyclin fold, Cln2 fusion (human)
Technique: yeast growth competition, sequencing
Sample: yeast
Notes: strong parent motif
Baseline: not given
Reading: higher = stronger binding
Parent: SCAPER docking peptide (human); SNARRSLNFGGST; partner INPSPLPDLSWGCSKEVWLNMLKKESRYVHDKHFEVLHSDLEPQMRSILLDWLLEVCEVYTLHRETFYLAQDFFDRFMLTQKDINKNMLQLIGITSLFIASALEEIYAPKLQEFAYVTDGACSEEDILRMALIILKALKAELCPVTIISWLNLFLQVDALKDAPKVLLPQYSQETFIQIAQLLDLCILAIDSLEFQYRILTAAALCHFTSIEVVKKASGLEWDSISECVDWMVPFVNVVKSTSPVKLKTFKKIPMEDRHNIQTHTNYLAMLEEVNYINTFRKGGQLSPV
Change	normalised enrichment score
SNARRSLNGGGST [F9G]	-0.505
SRARRSLNFGGST [N2R]	1.68
SNARRSLNFGGSR [T13R]	1.43
SNAFRSLNFGGST [R4F]	0.0245
SNAMRSLNFGGST [R4M]	-0.256
VNARRSLNFGGST [S1V]	0.79
STARRSLNFGGST [N2T]	1.18
SNARRSWNFGGST [L7W]	-0.0927
SNARRVLNFGGST [S6V]	4.76
SNGRRSLNFGGST [A3G]	0.943
SNARRSLNFGGQT [S12Q]	0.916
SNARWSLNFGGST [R5W]	-0.00779
SNARRSLNFGGSN [T13N]	1.91
SNARRGLNFGGST [S6G]	1.08
SNCRRSLNFGGST [A3C]	1.48
SNARRSLNFGGFT [S12F]	1.59
SNARRSLNVGGST [F9V]	0.162
DNARRSLNFGGST [S1D]	1.46
SNARRSLNFNGST [G10N]	0.92

Excerpt of the above (sample 4):
Change	normalised enrichment score
SNARRSLNFGGFT [S12F]	1.59
SNARRSLNVGGST [F9V]	0.162
SNARWSLNFGGST [R5W]	-0.00779
SNARRGLNFGGST [S6G]	1.08
DNARRSLNFGGST [S1D]	1.46
SNARRSLNFGGSN [T13N]	1.91
SNARRVLNFGGST [S6V]	4.76
SNARRSLNFNGST [G10N]	0.92
SNAFRSLNFGGST [R4F]	0.0245
